{"data": "Measurements collected from several papers", "note": "Each numbered part is a random draw from the data of one study; scales do not carry over between parts.", "sequence of UniProt Q9NQU5 (whole entry, looked up)": "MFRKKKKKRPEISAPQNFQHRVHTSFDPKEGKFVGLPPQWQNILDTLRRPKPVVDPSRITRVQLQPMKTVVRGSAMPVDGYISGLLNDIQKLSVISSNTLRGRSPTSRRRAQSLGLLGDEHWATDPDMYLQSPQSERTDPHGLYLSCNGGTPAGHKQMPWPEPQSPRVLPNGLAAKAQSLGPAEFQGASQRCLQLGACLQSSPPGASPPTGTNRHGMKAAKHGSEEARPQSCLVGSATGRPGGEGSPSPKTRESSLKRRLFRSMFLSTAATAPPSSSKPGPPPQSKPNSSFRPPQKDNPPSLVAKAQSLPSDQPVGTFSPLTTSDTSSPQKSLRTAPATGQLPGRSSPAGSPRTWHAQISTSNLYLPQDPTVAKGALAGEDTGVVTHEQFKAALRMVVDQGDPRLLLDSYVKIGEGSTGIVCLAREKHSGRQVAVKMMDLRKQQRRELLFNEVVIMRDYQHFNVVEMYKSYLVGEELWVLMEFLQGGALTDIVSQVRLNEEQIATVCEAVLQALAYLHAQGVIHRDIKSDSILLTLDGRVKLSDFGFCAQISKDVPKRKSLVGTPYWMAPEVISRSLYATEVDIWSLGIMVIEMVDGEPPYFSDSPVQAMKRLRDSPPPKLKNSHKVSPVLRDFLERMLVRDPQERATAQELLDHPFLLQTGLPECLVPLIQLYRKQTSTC", "sequence of UniProt Q12852 (whole entry, looked up)": "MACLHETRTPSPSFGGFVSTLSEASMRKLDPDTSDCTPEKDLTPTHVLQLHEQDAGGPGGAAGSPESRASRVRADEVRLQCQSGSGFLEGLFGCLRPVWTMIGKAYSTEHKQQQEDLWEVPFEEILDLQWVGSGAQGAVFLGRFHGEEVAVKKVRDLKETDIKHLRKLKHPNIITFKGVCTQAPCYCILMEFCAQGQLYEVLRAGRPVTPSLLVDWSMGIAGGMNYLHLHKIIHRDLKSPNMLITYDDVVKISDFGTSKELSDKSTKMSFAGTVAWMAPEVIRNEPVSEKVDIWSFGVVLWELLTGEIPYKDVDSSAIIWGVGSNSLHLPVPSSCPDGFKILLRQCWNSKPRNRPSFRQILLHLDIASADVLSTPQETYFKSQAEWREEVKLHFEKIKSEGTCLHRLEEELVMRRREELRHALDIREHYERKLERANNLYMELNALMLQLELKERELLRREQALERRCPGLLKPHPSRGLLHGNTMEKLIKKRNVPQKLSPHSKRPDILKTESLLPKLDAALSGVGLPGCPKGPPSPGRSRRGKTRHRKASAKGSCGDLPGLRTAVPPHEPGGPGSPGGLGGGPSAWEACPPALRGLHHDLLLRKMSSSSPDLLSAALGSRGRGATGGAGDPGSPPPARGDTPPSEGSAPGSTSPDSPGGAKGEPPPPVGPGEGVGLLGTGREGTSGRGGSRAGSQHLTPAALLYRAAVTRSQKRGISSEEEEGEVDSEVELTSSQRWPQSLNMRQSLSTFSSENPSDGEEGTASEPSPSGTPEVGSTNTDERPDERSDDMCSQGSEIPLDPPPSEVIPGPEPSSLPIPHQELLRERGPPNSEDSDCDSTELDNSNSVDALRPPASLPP", "sequence of UniProt P00519 (whole entry, unmodified, looked up)": "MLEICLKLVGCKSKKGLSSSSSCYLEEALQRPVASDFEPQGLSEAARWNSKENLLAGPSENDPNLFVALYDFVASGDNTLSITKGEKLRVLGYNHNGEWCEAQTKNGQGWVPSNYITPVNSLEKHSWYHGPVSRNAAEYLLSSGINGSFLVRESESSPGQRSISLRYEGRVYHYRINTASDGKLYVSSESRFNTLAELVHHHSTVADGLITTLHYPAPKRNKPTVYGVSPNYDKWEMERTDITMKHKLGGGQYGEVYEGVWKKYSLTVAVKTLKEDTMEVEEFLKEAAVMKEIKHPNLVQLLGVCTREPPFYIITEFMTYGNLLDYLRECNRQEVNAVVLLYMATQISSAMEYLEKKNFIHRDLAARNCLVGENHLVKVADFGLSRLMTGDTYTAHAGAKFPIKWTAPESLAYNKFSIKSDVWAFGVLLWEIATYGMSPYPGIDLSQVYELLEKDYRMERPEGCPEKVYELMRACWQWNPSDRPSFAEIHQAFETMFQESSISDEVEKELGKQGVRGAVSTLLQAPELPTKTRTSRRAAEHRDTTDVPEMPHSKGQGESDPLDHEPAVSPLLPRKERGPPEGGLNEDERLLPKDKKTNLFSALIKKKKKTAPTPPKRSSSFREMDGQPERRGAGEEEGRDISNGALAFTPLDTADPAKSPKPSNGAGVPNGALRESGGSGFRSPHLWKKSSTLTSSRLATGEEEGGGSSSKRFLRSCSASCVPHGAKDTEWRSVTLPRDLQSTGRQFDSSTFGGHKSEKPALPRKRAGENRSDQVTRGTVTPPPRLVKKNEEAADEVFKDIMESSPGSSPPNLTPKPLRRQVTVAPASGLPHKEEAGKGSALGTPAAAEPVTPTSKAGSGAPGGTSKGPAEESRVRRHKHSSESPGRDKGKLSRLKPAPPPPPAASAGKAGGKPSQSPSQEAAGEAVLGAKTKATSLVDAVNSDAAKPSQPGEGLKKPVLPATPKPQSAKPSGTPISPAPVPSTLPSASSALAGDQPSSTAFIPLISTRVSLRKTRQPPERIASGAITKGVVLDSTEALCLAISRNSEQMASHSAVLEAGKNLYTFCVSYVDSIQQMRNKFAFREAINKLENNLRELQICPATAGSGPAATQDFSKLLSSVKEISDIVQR", "sequence of UniProt Q8WTQ7 (whole entry, looked up)": "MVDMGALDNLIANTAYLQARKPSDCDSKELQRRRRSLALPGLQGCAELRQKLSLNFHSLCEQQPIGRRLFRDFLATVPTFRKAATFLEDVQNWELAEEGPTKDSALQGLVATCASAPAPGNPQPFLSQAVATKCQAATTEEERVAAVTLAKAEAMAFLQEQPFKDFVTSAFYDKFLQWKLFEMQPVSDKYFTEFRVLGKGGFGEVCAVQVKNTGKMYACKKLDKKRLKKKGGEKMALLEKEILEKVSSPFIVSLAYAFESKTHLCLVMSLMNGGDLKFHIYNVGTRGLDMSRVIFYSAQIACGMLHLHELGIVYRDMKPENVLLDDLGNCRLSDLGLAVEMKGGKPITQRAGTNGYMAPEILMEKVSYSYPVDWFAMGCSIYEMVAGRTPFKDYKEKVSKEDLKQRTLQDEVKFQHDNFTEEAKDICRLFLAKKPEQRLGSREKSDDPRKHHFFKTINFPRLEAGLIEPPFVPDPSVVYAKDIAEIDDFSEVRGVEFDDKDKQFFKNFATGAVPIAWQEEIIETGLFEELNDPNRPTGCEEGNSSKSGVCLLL", "sequence of UniProt P31751 (whole entry, looked up)": "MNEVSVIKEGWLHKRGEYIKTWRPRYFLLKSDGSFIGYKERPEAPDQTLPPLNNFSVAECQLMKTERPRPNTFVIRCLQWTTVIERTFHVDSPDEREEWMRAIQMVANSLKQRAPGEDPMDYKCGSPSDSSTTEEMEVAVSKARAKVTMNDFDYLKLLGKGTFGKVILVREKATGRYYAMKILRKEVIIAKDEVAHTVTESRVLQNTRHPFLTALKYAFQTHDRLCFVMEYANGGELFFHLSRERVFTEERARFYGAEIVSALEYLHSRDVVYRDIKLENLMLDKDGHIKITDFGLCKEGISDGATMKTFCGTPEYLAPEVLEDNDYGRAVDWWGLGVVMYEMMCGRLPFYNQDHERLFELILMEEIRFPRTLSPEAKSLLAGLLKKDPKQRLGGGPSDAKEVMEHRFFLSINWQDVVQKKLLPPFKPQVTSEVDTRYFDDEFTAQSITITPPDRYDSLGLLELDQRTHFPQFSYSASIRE"}
{"data": "Set 1", "target": "Calcium/calmodulin-dependent protein kinase type II subunit alpha (CAMK2A, Homo sapiens, UniProt Q9UQM7)", "effect on": "enzyme activity", "action": "inhibitor", "tested at": "10 µM", "sequence of UniProt Q9UQM7 (whole entry, looked up)": "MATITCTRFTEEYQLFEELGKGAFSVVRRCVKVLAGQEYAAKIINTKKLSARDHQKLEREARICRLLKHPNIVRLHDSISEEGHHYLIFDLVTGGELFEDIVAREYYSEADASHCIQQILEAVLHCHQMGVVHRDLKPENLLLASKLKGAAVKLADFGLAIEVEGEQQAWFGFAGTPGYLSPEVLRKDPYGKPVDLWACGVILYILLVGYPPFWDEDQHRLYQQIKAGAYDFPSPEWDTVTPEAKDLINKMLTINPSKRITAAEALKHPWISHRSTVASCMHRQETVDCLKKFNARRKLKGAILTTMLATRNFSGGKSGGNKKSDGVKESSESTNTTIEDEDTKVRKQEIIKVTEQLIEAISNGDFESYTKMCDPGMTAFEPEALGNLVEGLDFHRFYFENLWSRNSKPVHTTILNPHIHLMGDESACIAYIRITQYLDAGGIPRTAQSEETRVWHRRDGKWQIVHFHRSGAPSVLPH"}
{"Structure (SMILES)": "CC(C(=O)O)c1cccc(C(=O)c2ccccc2)c1 (stereo not drawn)", "inhibition": "-12%"}
{"Structure (SMILES)": "CN(C(=O)C(Cl)Cl)c1ccc(O)cc1", "inhibition": "-8%"}
{"Structure (SMILES)": "CC1(C)CC[C@]2(C(=O)O[C@@H]3O[C@H](CO)[C@@H](O)[C@H](O)[C@H]3O)CC[C@]3(C)C(=CC[C@@H]4[C@@]5(C)CC[C@H](O[C@@H]6O[C@H](C(=O)O)[C@@H](O)[C@H](O[C@@H]7OC[C@@H](O)[C@H](O)[C@H]7O)[C@H]6O)C(C)(C)[C@@H]5CC[C@]43C)[C@@H]2C1", "inhibition": "-3%"}
{"Structure (SMILES)": "CSCC[C@H](NC=O)C(=O)O", "inhibition": "-42%"}
{"Structure (SMILES)": "N[C@@H](C(=O)N[C@@H]1C(=O)N2C(C(=O)O)=C(Cl)CS[C@H]12)c1ccccc1", "inhibition": "8%"}
{"Structure (SMILES)": "CC[C@H]1NC(=O)[C@@H](NC(=O)c2ncccc2O)[C@@H](C)OC(=O)[C@H](c2ccccc2)NC(=O)[C@@H]2CC(=O)CCN2C(=O)[C@H](Cc2ccc(N(C)C)cc2)N(C)C(=O)[C@@H]2CCCN2C1=O", "inhibition": "20%"}
{"data": "Set 2", "target": "Histamine H4 receptor (HRH4, Homo sapiens, UniProt Q9H3N8)", "effect on": "binding", "technique": "radioligand binding", "tested at": "10 µM", "sequence of UniProt Q9H3N8 (whole entry, looked up)": "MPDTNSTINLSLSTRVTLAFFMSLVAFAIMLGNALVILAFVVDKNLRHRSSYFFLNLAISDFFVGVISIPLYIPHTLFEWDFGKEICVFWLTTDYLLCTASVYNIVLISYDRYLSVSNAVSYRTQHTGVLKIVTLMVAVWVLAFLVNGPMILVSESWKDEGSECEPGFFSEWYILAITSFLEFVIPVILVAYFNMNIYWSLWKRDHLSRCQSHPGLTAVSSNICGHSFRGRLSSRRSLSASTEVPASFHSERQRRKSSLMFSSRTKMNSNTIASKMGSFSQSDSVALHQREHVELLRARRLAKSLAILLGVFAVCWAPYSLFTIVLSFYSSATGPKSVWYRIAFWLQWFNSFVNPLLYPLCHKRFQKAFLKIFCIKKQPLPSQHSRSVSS"}
{"Structure (SMILES)": "COc1cccc(CNC(=O)c2nc3scc(COCc4ccc(C(=O)O)cc4)c3c(=O)[nH]2)c1", "inhibition [%]": 17.6}
{"Structure (SMILES)": "O=C([C@H]1C[C@H](O)CN1c1ccc(Cl)cc1)N1CC2COCC(C1)N2Cc1ccc(Cl)cc1", "inhibition [%]": -3.31}
{"Structure (SMILES)": "CC1=C(C#N)C(c2ccc3c(c2)c(NC(=O)c2ccccc2C)nn3C)C(C#N)=C(C)N1", "inhibition [%]": -13}
{"Structure (SMILES)": "Cc1c[nH]c2nccc(Oc3c(F)cc(Nc4cc(Cl)nc(N)n4)cc3F)c12", "inhibition [%]": -8.74}
{"Structure (SMILES)": "O=C(Nc1cnc(Oc2ccc(F)cc2)nc1)N1CCc2ncccc2[C@@H]1c1ccc(F)cc1", "inhibition [%]": -4.41}
{"Structure (SMILES)": "CCOC(=O)c1cc2cc(-c3cc(C(=O)NCc4ccc(C(=O)O)cc4)nn3C)ccc2[nH]1", "inhibition [%]": -1.52}
{"Structure (SMILES)": "CCOCCn1cc(C(=O)Nc2ccc(-n3nc(-c4cccnc4)cc3C(F)(F)F)cn2)ccc1=O", "inhibition [%]": 48.6}
{"Structure (SMILES)": "O=C(O)c1cc(-c2ccc(C3CCNCC3)cc2)c2ccc(-c3ccc(C(F)(F)F)cc3)cc2c1", "inhibition [%]": -6.7}
{"Structure (SMILES)": "COc1nc2ccc([C@@](O)(c3ccccc3)C3CCN(C(C)=O)CC3)cc2c(Cl)c1Cc1ccc(-n2cccn2)cc1", "inhibition [%]": -21.2}
{"Structure (SMILES)": "O=C1CCc2cc(Nc3cc(OC4CCOCC4)c([N+](=O)[O-])cc3Cl)ccc2N1", "inhibition [%]": 11.6}
{"Structure (SMILES)": "O[C@]1(C(F)(F)F)CCCC[C@H]1Nc1ccc(F)cc1", "inhibition [%]": 15.6}
{"Structure (SMILES)": "CC(=O)Nc1nc(CN2CCC[C@H](Cc3cc(C)nc(C)c3)C2)cs1", "inhibition [%]": -0.6}
{"Structure (SMILES)": "O=C(Nc1cccnn1)N1CC(CC=Cc2cncc(Oc3ccc(C(F)(F)F)cn3)n2)C1", "inhibition [%]": -20.1}
{"Structure (SMILES)": "CNC(=O)c1ccc(Nc2ncc(C(F)(F)F)c(NCc3nccnc3N(C)S(C)(=O)=O)n2)cc1", "inhibition [%]": -19.6}
{"Structure (SMILES)": "COCc1nc2cnc3cc(-c4c(C)noc4C)c(OC[C@H]4CCNC4)cc3c2n1[C@H](C)c1ccccc1", "inhibition [%]": 29.3}
{"Structure (SMILES)": "CC(C)CC(=O)N1CCc2nc(-c3ccc(Br)cc3)nc(N(C)Cc3ccccc3)c2C1", "inhibition [%]": -7.78}
{"Structure (SMILES)": "CN1C(=O)[C@@H](N2CCc3cn(Cc4ccccc4)nc3C2=O)COc2ccccc21", "inhibition [%]": 6.09}
{"Structure (SMILES)": "CC(=O)c1c(NS(C)(=O)=O)c2cc(-c3ccc(Cl)cc3)c(-c3ccc(Cl)cc3Cl)nc2n(C)c1=O", "inhibition [%]": -13.6}
{"Structure (SMILES)": "CCCOc1ccc([C@H]2[C@H](C(=O)O)[C@@H](c3ccc4c(c3)OCO4)CN2CC(=O)Nc2c(CC)cccc2CC)cc1", "inhibition [%]": 7.94}
{"Structure (SMILES)": "CS(=O)(=O)NCC[C@H](NC(=O)c1cncc2c1cnn2-c1ccc(F)cc1)c1ccnc(S(C)(=O)=O)c1", "inhibition [%]": -0.39}
{"Structure (SMILES)": "CC(C)(O)c1cncc(-c2nc3ccc(F)cc3n2C2CC2)c1", "inhibition [%]": -16.9}
{"Structure (SMILES)": "Nc1c(C(=O)NCc2ccc(C(=O)NCCCC3CCCCC3)cc2)cnn1-c1ccccc1", "inhibition [%]": -28}
{"Structure (SMILES)": "Cc1nccc(COC(=O)N2C[C@@H]3[C@@H](CNC(=O)c4ccc5[nH]nnc5c4)[C@@H]3C2)n1", "inhibition [%]": 7.45}
{"Structure (SMILES)": "Cc1c(N2CCCC2)nc2ccc(Br)cc2c1C(=O)NC[C@H](CCC(=O)O)c1ccccc1Cl", "inhibition [%]": 13.1}
{"Structure (SMILES)": "CC(=O)Nc1c(F)cc(C(=O)N[C@H]2CC[C@H](O)CC2)cc1O[C@@H](C)c1ccccc1", "inhibition [%]": 20.1}
{"data": "Set 3", "species": "mouse", "matrix": "microsomes or S9", "tested at": "2 µM", "time": "0.5 h"}
{"SMILES": "O=C(COc1ccc2c3ccccc3n(C(=O)c3cccc4ccccc34)c2c1)N1CCCC1", "remaining compound [%]": 42.5}
{"SMILES": "Cc1cccc(CNC(=O)c2c(OCC(C)C)cc(=O)n3c2CCCCC3)c1", "remaining compound [%]": 2.42}
{"SMILES": "CN1CCN(c2nc(Nc3ccc(F)cc3)nc(Nc3ccc(F)cc3)n2)CC1", "remaining compound [%]": 32.9}
{"SMILES": "COCCn1c(C)cc(C)c(C(=O)Nc2nc(COC)n[nH]2)c1=O", "remaining compound [%]": "> 99"}
{"SMILES": "COC(=O)c1cccc2[nH]c(NCc3c(C)nn(C(C)(C)C)c3C)nc12", "remaining compound [%]": 0.159}
{"SMILES": "Cn1ccc(-c2cnc(-c3cc(F)ccc3[N+](=O)[O-])nc2)n1", "remaining compound [%]": 76.2}
{"SMILES": "CC(C)CNc1oc(/C=C/c2cccs2)nc1C#N", "remaining compound [%]": 0.494}
{"data": "Set 4", "cell line": "mouse MPNST tumor cells", "technique": "high-content nuclear imaging", "measured": "cell number", "tested at": "10 µM", "time": "12 h", "setting": "mean of 2 replicates", "baseline": "plate mean", "reading": "higher = more cells"}
{"Compound": "NCCCCCC(=O)O", "nuclei count [z-score]": 0.395}
{"Compound": "CCCC(C)NC(=O)c1ccc(Cl)c(Cl)c1 (stereo not drawn)", "nuclei count [z-score]": 1.4}
{"Compound": "Nc1nc(/C(=C/CC(=O)O)C(=O)N[C@@H]2C(=O)N3C(C(=O)O)=CCS[C@H]23)cs1", "nuclei count [z-score]": 0.556}
{"Compound": "Cc1cc(N2C[C@@H](C)N[C@@H](C)C2)ncc1-c1ccc(-c2nc3c(ccn3C)c(=O)[nH]2)cc1", "nuclei count [z-score]": -4.96}
{"Compound": "COc1ccc(C2CC(c3c(O)cc(C)oc3=O)=NCCS2)c(OC)c1 (stereo not drawn)", "nuclei count [z-score]": -5.21}
{"data": "Set 5", "SMILES": "CC#CC(=O)N1CCC[C@H]1c1nc(-c2ccc(C(=O)Nc3ccccn3)cc2)c2c(N)nccn12", "effect on": "enzyme activity", "action": "inhibitor", "tested at": "1 µM"}
{"target": "Epidermal growth factor receptor (EGFR, Homo sapiens, UniProt P00533, L858R)", "inhibition [%]": 1}
{"target": "Tyrosine-protein kinase ABL1, phosphorylated (ABL1, Homo sapiens, UniProt P00519, E255K)", "inhibition [%]": 10}
{"target": "Mitogen-activated protein kinase kinase kinase kinase 2 (MAP4K2, Homo sapiens, UniProt Q12851)", "inhibition [%]": 0}
{"target": "Mitogen-activated protein kinase kinase kinase 12 (MAP3K12, Homo sapiens, UniProt Q12852)", "inhibition [%]": 3}
{"data": "Set 6", "Compound": "CN1CCN(C(=O)c2ccc(NC(=O)Nc3ccc(N(C)c4ccnc(Nc5ccc(CS(C)(=O)=O)cc5)n4)cc3)cc2)CC1", "technique": "competitive binding panel", "tested at": "1 µM", "baseline": "vehicle"}
{"target": "Myosin-IIIa (MYO3A, Homo sapiens, UniProt Q8NEV4)", "remaining binding [%]": 7}
{"target": "Serine/threonine-protein kinase MARK1 (MARK1, Homo sapiens, UniProt Q9P0L2)", "remaining binding [%]": 44}
{"target": "RAC-beta serine/threonine-protein kinase (AKT2, Homo sapiens, UniProt P31751)", "remaining binding [%]": 100}
{"target": "Serine/threonine-protein kinase PAK 6 (PAK6, Homo sapiens, UniProt Q9NQU5)", "remaining binding [%]": 92}
{"target": "Rhodopsin kinase GRK7 (GRK7, Homo sapiens, UniProt Q8WTQ7)", "remaining binding [%]": 100}
{"target": "Serine/threonine-protein kinase RIO2 (RIOK2, Homo sapiens, UniProt Q9BVS4)", "remaining binding [%]": 21}
{"target": "Serine/threonine-protein kinase BRSK2 (BRSK2, Homo sapiens, UniProt Q8IWQ3)", "remaining binding [%]": 100}
{"note": "Some of these lines once more (set 6):"}
{"target": "RAC-beta serine/threonine-protein kinase (AKT2, Homo sapiens, UniProt P31751)", "remaining binding [%]": 100}
{"target": "Myosin-IIIa (MYO3A, Homo sapiens, UniProt Q8NEV4)", "remaining binding [%]": 7}
{"target": "Serine/threonine-protein kinase MARK1 (MARK1, Homo sapiens, UniProt Q9P0L2)", "remaining binding [%]": 44}
{"target": "Serine/threonine-protein kinase RIO2 (RIOK2, Homo sapiens, UniProt Q9BVS4)", "remaining binding [%]": 21}
{"target": "Rhodopsin kinase GRK7 (GRK7, Homo sapiens, UniProt Q8WTQ7)", "remaining binding [%]": 100}
{"target": "Serine/threonine-protein kinase BRSK2 (BRSK2, Homo sapiens, UniProt Q8IWQ3)", "remaining binding [%]": 100}
{"target": "Serine/threonine-protein kinase PAK 6 (PAK6, Homo sapiens, UniProt Q9NQU5)", "remaining binding [%]": 92}
